Assay results of several laboratories.
Each line is one published result; not all experiments were run side by side. Several values in a cell are separate wells, animals, samples, runs or records. ± gives the spread as reported.
IDE: Insulin-degrading enzyme (IDE, Homo sapiens, UniProt P14735)
TOP2A: DNA topoisomerase 2-alpha (TOP2A, Homo sapiens, UniProt P11388)
Sequence of UniProt Q01581 (whole entry, looked up): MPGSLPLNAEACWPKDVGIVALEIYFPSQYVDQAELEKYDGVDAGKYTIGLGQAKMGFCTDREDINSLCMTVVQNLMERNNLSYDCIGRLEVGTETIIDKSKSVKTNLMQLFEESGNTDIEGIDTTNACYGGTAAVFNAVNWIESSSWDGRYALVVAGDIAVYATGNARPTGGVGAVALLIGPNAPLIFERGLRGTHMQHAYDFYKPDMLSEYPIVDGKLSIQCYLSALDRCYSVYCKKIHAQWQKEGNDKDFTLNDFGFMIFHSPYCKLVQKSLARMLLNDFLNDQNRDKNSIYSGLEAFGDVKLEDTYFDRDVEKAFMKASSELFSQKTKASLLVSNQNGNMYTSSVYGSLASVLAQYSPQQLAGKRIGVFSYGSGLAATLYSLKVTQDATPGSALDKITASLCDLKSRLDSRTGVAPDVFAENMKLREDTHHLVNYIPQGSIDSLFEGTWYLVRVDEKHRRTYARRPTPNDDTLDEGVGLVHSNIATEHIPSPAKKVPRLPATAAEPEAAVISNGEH
Sequence of UniProt Q80VM9 (whole entry, looked up): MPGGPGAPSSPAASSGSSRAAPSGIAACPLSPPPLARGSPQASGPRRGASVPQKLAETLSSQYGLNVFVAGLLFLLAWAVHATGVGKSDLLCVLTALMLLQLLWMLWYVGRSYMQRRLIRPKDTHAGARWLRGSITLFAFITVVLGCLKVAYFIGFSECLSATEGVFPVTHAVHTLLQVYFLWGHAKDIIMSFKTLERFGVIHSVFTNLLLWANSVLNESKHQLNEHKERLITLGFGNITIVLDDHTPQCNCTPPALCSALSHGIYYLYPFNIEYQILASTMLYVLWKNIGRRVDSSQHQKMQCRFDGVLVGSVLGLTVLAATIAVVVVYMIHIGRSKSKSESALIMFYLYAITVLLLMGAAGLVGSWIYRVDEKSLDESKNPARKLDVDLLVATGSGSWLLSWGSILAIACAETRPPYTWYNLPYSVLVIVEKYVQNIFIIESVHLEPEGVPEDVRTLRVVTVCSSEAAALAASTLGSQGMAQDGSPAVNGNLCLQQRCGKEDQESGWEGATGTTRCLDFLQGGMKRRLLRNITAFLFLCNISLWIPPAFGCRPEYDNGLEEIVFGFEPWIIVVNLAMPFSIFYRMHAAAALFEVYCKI
Sequence of UniProt Q16774 (whole entry, looked up): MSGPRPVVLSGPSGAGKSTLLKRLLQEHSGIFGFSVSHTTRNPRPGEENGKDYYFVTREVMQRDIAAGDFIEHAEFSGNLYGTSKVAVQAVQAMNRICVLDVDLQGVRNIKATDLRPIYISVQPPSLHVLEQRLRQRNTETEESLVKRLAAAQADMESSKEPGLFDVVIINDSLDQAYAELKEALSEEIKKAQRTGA
Sequence of UniProt P11388 (whole entry, looked up): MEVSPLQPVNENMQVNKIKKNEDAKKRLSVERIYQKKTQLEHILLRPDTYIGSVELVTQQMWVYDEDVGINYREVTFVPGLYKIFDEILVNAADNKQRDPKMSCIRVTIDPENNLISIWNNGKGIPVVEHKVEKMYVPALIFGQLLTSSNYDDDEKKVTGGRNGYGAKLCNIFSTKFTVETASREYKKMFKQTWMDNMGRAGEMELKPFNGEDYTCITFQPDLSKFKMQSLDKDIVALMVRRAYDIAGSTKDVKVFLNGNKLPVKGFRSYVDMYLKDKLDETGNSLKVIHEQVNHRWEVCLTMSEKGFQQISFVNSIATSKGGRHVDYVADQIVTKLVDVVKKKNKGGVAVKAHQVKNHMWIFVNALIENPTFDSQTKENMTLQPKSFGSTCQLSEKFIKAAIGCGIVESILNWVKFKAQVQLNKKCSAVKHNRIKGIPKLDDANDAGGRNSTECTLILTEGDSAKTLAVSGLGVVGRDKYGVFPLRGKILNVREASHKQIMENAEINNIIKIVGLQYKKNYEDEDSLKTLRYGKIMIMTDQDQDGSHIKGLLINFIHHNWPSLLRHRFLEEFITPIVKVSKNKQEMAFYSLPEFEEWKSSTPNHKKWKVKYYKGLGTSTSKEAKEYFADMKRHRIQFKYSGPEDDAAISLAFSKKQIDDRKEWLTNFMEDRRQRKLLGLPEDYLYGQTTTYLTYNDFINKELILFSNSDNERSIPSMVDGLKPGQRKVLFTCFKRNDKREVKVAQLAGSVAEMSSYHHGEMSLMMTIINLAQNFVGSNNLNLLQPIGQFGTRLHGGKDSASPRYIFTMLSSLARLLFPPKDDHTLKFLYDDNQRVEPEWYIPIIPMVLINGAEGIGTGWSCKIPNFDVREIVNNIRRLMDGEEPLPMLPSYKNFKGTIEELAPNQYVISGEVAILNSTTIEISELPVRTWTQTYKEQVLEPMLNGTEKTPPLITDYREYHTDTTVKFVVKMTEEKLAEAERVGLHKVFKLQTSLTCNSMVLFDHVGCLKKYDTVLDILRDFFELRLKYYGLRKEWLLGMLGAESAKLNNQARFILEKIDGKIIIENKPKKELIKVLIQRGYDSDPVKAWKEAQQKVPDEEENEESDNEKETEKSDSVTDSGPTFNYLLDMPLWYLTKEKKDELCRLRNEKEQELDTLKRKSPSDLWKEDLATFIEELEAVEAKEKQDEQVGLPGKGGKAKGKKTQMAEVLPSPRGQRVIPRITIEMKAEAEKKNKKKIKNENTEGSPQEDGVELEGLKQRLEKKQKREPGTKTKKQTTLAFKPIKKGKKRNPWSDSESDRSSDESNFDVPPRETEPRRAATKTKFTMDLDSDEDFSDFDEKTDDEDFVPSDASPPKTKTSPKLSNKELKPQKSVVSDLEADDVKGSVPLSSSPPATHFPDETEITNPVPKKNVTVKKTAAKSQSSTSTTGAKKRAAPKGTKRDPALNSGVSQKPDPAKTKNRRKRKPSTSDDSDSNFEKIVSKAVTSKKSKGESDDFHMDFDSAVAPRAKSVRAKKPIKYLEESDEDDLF
Sequence of UniProt Q8NFU1 (whole entry, looked up): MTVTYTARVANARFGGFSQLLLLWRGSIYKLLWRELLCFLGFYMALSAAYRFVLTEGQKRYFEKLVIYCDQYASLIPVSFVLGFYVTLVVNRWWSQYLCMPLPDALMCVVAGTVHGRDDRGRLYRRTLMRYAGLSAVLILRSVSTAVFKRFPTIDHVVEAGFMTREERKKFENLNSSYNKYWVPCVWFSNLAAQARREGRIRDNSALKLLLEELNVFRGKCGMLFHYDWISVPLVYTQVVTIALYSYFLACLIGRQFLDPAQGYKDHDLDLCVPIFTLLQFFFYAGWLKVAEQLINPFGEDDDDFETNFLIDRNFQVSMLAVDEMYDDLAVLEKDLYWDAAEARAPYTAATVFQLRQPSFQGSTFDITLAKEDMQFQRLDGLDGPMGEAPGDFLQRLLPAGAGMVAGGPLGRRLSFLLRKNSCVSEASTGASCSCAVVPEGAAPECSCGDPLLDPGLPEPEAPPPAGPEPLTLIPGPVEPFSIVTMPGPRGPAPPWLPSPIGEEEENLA
Sequence of UniProt P04062 (whole entry, unmodified, looked up): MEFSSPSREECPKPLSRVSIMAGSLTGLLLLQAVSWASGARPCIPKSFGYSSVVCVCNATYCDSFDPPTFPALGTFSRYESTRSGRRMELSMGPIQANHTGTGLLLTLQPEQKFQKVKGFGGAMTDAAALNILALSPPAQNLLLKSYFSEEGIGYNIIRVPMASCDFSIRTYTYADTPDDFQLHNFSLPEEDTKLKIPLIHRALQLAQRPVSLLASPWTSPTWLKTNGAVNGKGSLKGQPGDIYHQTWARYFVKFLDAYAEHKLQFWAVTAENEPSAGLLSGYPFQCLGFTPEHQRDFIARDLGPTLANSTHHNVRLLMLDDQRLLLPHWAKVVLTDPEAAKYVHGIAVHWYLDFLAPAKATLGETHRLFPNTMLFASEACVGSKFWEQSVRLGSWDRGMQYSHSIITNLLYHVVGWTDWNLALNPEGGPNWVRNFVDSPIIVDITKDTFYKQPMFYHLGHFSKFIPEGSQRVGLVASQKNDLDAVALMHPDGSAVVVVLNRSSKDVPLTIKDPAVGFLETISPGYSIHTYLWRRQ
Sequence of UniProt P11607 (whole entry, looked up): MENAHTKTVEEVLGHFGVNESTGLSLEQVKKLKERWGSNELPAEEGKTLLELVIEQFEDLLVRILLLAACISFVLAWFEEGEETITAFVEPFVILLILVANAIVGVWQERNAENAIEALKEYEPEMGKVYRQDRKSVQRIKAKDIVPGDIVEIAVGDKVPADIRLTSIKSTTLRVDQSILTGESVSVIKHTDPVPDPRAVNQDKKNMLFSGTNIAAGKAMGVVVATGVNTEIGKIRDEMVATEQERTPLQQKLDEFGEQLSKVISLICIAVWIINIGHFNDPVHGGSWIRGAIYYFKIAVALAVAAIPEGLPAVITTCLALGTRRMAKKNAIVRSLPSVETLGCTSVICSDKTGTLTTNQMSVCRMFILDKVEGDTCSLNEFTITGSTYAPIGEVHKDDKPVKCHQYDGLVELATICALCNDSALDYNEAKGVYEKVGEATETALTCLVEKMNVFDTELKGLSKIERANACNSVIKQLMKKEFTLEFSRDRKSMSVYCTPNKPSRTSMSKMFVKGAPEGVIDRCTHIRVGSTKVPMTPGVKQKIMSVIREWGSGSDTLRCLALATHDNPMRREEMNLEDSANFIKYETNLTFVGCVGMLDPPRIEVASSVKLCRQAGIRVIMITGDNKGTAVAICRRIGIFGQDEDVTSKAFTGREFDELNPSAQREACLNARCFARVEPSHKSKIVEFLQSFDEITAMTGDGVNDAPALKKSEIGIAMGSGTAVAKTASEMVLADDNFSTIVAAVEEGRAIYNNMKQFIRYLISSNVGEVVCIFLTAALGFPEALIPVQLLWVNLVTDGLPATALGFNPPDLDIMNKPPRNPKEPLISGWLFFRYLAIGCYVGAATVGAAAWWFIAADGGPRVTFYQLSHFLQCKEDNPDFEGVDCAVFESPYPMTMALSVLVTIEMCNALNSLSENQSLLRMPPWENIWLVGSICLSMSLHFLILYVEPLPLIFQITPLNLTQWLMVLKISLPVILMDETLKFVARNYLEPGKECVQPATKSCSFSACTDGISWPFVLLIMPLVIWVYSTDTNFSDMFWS

`Cc1[nH]c(C)c(-c2ccc(-c3ccc(OC(F)(F)F)cc3)nc2)c(=O)c1Cl` has an IC50 of 224 ± 25 nM (Plasmodium yoelii; 17XL; 384-well).
For `CCCCCCCCC(=O)c1cc(O)c(O)c(O)c1`, the activation was 2.01 fold (Retinoic acid receptor alpha (RARA, Homo sapiens, UniProt P10276); reporter gene, Gal4 hybrid reporter; 10 µM; baseline: vehicle).
The reversal potential of `Cc1ccc(C(=O)Nc2ccc3ccccc3c2)o1` is reported as 55.4 mV and 62.5 mV and 59.4 mV and 51.3 mV and 56.4 mV (Otop1 (Mus musculus, UniProt Q80VM9); ion current, whole-cell voltage ramp; 10 µM, together with: K+ bath solution).
`CC(=O)/N=c1/sc(S(N)(=O)=O)nn1C` — result for “intrinsic binding ΔH”: -7.31 kcal/mol (Carbonic anhydrase 4 (CA4, Homo sapiens, UniProt P22748); ITC; concentration not given, 25 °C).
`O=c1c2nc(Br)n([C@@H]3O[C@@H]4CO[P@@](O)(=S)O[C@H]4[C@H]3O)c2nc2[nH]c(-c3ccccc3)cn12` (single isomer, unassigned) — result for “relative binding affinity”: 0.0018 (anti-cGMP antibody; antibody binding, competitive cGMP EIA; concentration not given, acetylated samples; baseline: EC50 cGMP over EC50 cpd, higher = stronger binding).
`O=C1C(SCCO)=C(SCCO)C(=O)c2ccccc21`: “inhibition after dialysis” over 90% (Protein-glutamine gamma-glutamyltransferase (TGM2, Homo sapiens, UniProt P21980); enzyme activity, inhibitor; concentration not given, reversibility, without calcium).
The EC50 of `Cc1ccccc1-c1ccc([C@H]2[C@H](CO)N3C(=O)CN(S(C)(=O)=O)C[C@@H]23)cc1` is reported as 17500 nM (IDE; enzyme activity, inhibitor, fluorogenic kinetic; together with: Mca-RPPGFSAFK(Dnp)-OH substrate).
For `Oc1ccccc1-c1n[nH]cc1-c1ccnc2ccccc12`, “log2 fold change” read -0.01 (Cell cycle protein kinase DBF2 (DBF2, Candida albicans, UniProt Q59KM8); kinase binding, MIB/MS competition; Candida albicans lysate; 1 µM; baseline: DMSO, negative = stronger binding).
`O=c1nc(SCc2cc(F)cc(C(F)(F)F)c2)nc(SCc2ccc3ccccc3n2)[nH]1`: “mean decatenated DNA” 0.16% (TOP2A; decatenation; 31.25 µM).
The IC50 of `Cc1[nH]cc(Br)c(=O)c1-c1ccc(Oc2ccccc2)cc1` is reported as 253 ± 109 nM (Plasmodium yoelii; 17XL; 384-well).
`CC1=C[C@H](O)CC(C)(C)[C@H]1/C=C/C(C)=C/C=C/C(C)=C/C=C/C=C(C)/C=C/C=C(C)/C=C/C1=C(C)C[C@@H](O)CC1(C)C`: “number of binding sites” 0.78 (Beta-lactoglobulin (LGB, Bos taurus, UniProt P02754); fluorescence quenching; concentration not given, 308 K).
For `C=CC(=O)N1CCC(COCC(=O)N2CCN(c3nc(-c4cnc(N)nc4C(F)F)nc(N4CCOC[C@@H]4C)n3)CC2)CC1`, the remaining binding was 100% (Myosin-IIIa (MYO3A, Homo sapiens, UniProt Q8NEV4); KINOMEscan; 1 µM).
`c1ccc(CCCCCOCCc2ccc3c(c2)OCO3)cc1` gave an Emax of about 40% (ATP2A2 (Sus scrofa, UniProt P11607); ATPase Vmax increase, activator; pig microsomes; 0.1 to 50 µM; baseline: vehicle).
For `COc1cc(C(=O)NS(=O)(=O)c2ccccc2C)ccc1Cc1cn(C)c2ccc(NC(=O)OC3CCCC3)cc12`, the Hill coefficient was about 1 (LRRC8A/LRRC8C (Homo sapiens, UniProt Q8IWT6+Q8TDW0); whole-cell patch clamp; HCT116 LRRC8-/- expressing LRRC8A/C).
The Dmax of `CCC(C)(NCCc1ccc(C(F)(F)F)c(Cl)c1)c1cccc(NC2=CC(=O)N(C3CCC(=O)NC3=O)C2=O)c1` (stereo not shown) is reported as 77% (Cereblon/Ikaros (Homo sapiens, UniProt Q13422+Q96SW2); protein degradation, degrader, HiBiT luminescence; Jurkat).
For `O=c1ccc2nc3ccc(O[C@@H]4O[C@H](CO)[C@@H](O)[C@H](O)[C@H]4O)cc3oc-2c1`, the Vmax/Km was 1.4 pmol/min/µM (Lysosomal acid glucosylceramidase (GBA1, Homo sapiens, UniProt P04062, R534H); substrate).
The Hill coefficient of `CC[C@H](NC(=O)c1c(C)c(-c2ccccc2)nc2ccccc12)c1ccccc1` is reported as 1.1 (Neuromedin-K receptor (TACR3, Homo sapiens, UniProt P29371); radioligand binding, antagonist; reference compound).
`O=C(O)CC[C@H](NC(=O)N[C@@H](CCCCNC(=O)[C@H](Cc1ccc2ccccc2c1)NC(=O)CCCCCNC(=O)CN1CCN(CC(=O)O)CCN(CC(=O)O)CCN(CC(=O)O)CC1)C(=O)O)C(=O)O` [gallium-68 labelled] — result for “tumour to non-tumour ratio”: 4.61 ± 0.55 (PET/CT SUVmean; mice with 22Rv1 xenograft; intravenous, 3.7 MBq, 4 h).
`CC(C)c1ccc(CSc2nc(SCc3ccc4sccc4c3)[nH]c(=O)n2)cc1` — result for “mean decatenated DNA”: 0% (TOP2A; decatenation; 31.25 µM).
For `CCN1CCC[C@H]1CNC(=O)c1c(O)c(Cl)cc(Cl)c1OC`, “log2 fold change” read 0.03 (Uracil nucleotide/cysteinyl leukotriene receptor (GPR17, Homo sapiens, UniProt Q13304); β-arrestin recruitment, TANGO luminescence; concentration not given; baseline: basal luminescence).
`NCCCC(=O)O`: “normalised MST signal” 0.174 (Sodium- and chloride-dependent taurine transporter (SLC6A6, Homo sapiens, UniProt P31641, L306A); binding, microscale thermophoresis; 30.5 nM, room temperature, together with: 50 nM labelled protein; higher = more binding).
`O=C(O)C1=CCNCC1` has a current density of -141 pA/pF and -400 pA/pF and -159 pA/pF and -186 pA/pF and -203 pA/pF (Bestrophin-2a (BEST2, Homo sapiens, UniProt Q8NFU1); whole-cell patch clamp; HEK293 transiently expressing channel; concentration not given, membrane potential -80 mV).
`Nc1ncnc2c1ncn2[C@@H]1O[C@H](COP(=O)(O)OP(=O)(O)OP(=O)(O)O)[C@@H](O)[C@H]1O` has a channel reactivation of 10 to 15% (Sulfonylurea receptor 1, Kir6.2 (Homo sapiens, UniProt Q09428+Q14654); inside-out patch clamp; HEK293; concentration not given, after Ca2+ exposure 5 min; baseline: control).
`O=c1nc(SCc2cc(F)cc(C(F)(F)F)c2)nc(SCc2ccc3nc(OCCN4CCOCC4)ccc3c2)[nH]1` — result for “mean decatenated DNA”: 1.1% (TOP2A; decatenation; 31.25 µM).
The viability of `CCCCc1nc2cc(/C=C/C(=O)NO)ccc2n1CCN(CC)CC` is reported as 1.95% (HBL-1; 0.5 µM, 120 h).
Under “mean decatenated DNA”, `O=c1nc(SCc2cc(F)cc(C(F)(F)F)c2)nc(SCc2ccc3nc(Cl)ccc3c2)[nH]1` is recorded as 25.8% (TOP2A; decatenation; 15.6 µM).
With `Cc1ccccc1-c1ccc([C@H]2[C@@H](CO)N3CCCCN(C(=O)Nc4ccccc4)C[C@@H]23)cc1` the EC50 was 2900 nM (IDE; enzyme activity, inhibitor, fluorogenic kinetic; together with: Mca-RPPGFSAFK(Dnp)-OH substrate).
`O=C(COP(=O)(O)O)[C@@H](O)[C@H](O)[C@H](O)COP(=O)(O)O`: “thermal stability ratio” 0.259 and 0.69 and 0.864 (HMGCS1 (Homo sapiens, UniProt Q01581); thermal proteome profiling; HepG2 cell lysate; concentration not given, 57 over 37 °C; baseline: compound over control).
`OC[C@H]1OC(O)[C@H](O)[C@@H](O)[C@@H]1O` (stereo partly shown): DNA binding “no effect” (Transcription factor MafB (MAFB, Homo sapiens, UniProt Q9Y5Q3); EMSA; concentration not given, together with: DNA).
With `COc1cc(F)ccc1-c1ncnc(Nc2cccc(C[S@](C)(=N)=O)c2)n1` the remaining activity was 97% (Ribosomal protein S6 kinase beta-1 (RPS6KB1, Homo sapiens, UniProt P23443); kinase activity; 10 µM, together with: 10 µM ATP).
For `Cc1nc(CSc2nc(SCc3cc(F)cc(C(F)(F)F)c3)nc(=O)[nH]2)cs1`, the decatenated DNA was 0% (TOP2A; decatenation; 125 µM, replicate 1).
For `Cc1cccc(N2CC(C(=O)O)CC2=O)c1` (stereo not shown), “log fold enrichment” read 0.022 (DNA damage-binding protein 1 (DDB1, Homo sapiens, UniProt Q16531); binding, affinity selection mass spectrometry; baseline: other proteins in batch).
Under “mean decatenated DNA”, `O=c1nc(SCc2cc(F)cc(C(F)(F)F)c2)nc(SCc2nc3ccccc3[nH]2)[nH]1` is recorded as 0% (TOP2A; decatenation; 125 µM).
With `Nc1nc2c(ncn2[C@@H]2O[C@H](COP(=O)(O)O)[C@@H](O)[C@H]2O)c(=O)[nH]1` the reaction velocity was 0.118 µM/s and 0.116 µM/s and 0.115 µM/s (GUK1 (Homo sapiens, UniProt Q16774); enzyme activity, NADH-coupled; 1000 µM, together with: KCl 50 mM).
`CC(=O)N[C@@H](CSC(=O)[C@]1([C@@H](O)C(C)C)NC(=O)[C@H](C)[C@@H]1O)C(=O)O`: “20S proteasome activity” “decreased” (Proteasome Macropain subunit MB1 (PSMB5, Homo sapiens, UniProt P28074); proteolytic activity; human islets; concentration not given, 24 h, together with: Suc-LLVY-AMC substrate).
`O=C(O)CNC(=O)C(=O)O` gave a viability of 98.1% (HBL-1; 1 µM, 120 h).
The ∆G of `COc1cc(/C=C/c2ccc(O)cc2)cc(OC)c1` is reported as -7.2 kcal/mol (O-methyltransferase (Sorghum bicolor, UniProt A0A1B6PFV1); ITC; one set of sites, together with: SFG).
For `O=c1nc(SCc2cc(F)cc(C(F)(F)F)c2)nc(SCc2ccc3ncsc3c2)[nH]1`, the decatenated DNA was 100% (TOP2A; decatenation; 7.8 µM, replicate 1).
The remaining activity of `COc1cc(-c2cncc3c2CN(C)Cc2cc(N4CCNCC4)ccc2-3)cc(OC)c1OC` is reported as 87% (Fibroblast growth factor receptor 1 (FGFR1, Homo sapiens, UniProt P11362); kinase activity; 1 µM, human enzyme, together with: ATP 10 µM; baseline: DMSO control).
With `CC(C)C[C@H](NC(=O)C[C@H](O)[C@H](CC(C)C)NC(=O)[C@H](Cc1c[nH]cn1)NC(=O)CNC(=O)[C@@H](NC(=O)[C@H](C)NC(=O)[C@H](Cc1c[nH]c2ccccc12)NC(=O)[C@H](CCC(N)=O)NC(=O)[C@@H](Cc1ccccc1)NC(=O)COCCOCCNC(=O)CCC(C(=O)O)N1CCN(CC(=O)O)CCN(CC(=O)O)CCN(CC(=O)O)CC1)C(C)C)C(N)=O` (stereo partly shown) [lutetium-177 labelled] the tissue uptake was 0.02 ± 0.03 %ID/g (female BALB/c nu/nu mice, intestines; intravenous, 50 pmol, 24 h).

Repeated from above:
`O=C(O)CC[C@H](NC(=O)N[C@@H](CCCCNC(=O)[C@H](Cc1ccc2ccccc2c1)NC(=O)CCCCCNC(=O)CN1CCN(CC(=O)O)CCN(CC(=O)O)CCN(CC(=O)O)CC1)C(=O)O)C(=O)O` [gallium-68 labelled] — result for “tumour to non-tumour ratio”: 4.61 ± 0.55 (PET/CT SUVmean; mice with 22Rv1 xenograft; intravenous, 3.7 MBq, 4 h).
`CC(C)c1ccc(CSc2nc(SCc3ccc4sccc4c3)[nH]c(=O)n2)cc1` — result for “mean decatenated DNA”: 0% (TOP2A; decatenation; 31.25 µM).
For `CCN1CCC[C@H]1CNC(=O)c1c(O)c(Cl)cc(Cl)c1OC`, “log2 fold change” read 0.03 (Uracil nucleotide/cysteinyl leukotriene receptor (GPR17, Homo sapiens, UniProt Q13304); β-arrestin recruitment, TANGO luminescence; concentration not given; baseline: basal luminescence).
`NCCCC(=O)O`: “normalised MST signal” 0.174 (Sodium- and chloride-dependent taurine transporter (SLC6A6, Homo sapiens, UniProt P31641, L306A); binding, microscale thermophoresis; 30.5 nM, room temperature, together with: 50 nM labelled protein; higher = more binding).
`O=C(O)C1=CCNCC1` has a current density of -141 pA/pF and -400 pA/pF and -159 pA/pF and -186 pA/pF and -203 pA/pF (Bestrophin-2a (BEST2, Homo sapiens, UniProt Q8NFU1); whole-cell patch clamp; HEK293 transiently expressing channel; concentration not given, membrane potential -80 mV).
`Nc1ncnc2c1ncn2[C@@H]1O[C@H](COP(=O)(O)OP(=O)(O)OP(=O)(O)O)[C@@H](O)[C@H]1O` has a channel reactivation of 10 to 15% (Sulfonylurea receptor 1, Kir6.2 (Homo sapiens, UniProt Q09428+Q14654); inside-out patch clamp; HEK293; concentration not given, after Ca2+ exposure 5 min; baseline: control).
